# Measurements gathered from unrelated publications.
# Compare with care: the assays were run in different laboratories. “And” joins repeats or separate records; there may be more than shown.
# Cell line: PC-3
SMILES,test,test system,setting,how to read,endpoint,value
O=C(Nc1nnc2n3c(Cc4ccccc4)n[nH]c3nc(-c3ccc(Cl)cc3)c1-2)c1ccccc1,SRB,,"10 µM, NCI60 single-dose screen, prostate cancer",reference: untreated,cell growth,101%
Cn1cncc1C1=CN(c2ncnc3[nH]cnc23)CCS1,,,prostate cancer,,GI50,19.5 µM
CCCCCCCCCc1ccc(C(=O)Nc2cc(C)ccc2C(=O)OC)cc1,"immunoblot, measured: phospho-TCTP Ser46",,"concentration not given, 23 h",,TCTP Ser46 phosphorylation,no effect
NNc1nc(-c2ccc(Cl)cc2)c2c(NC(=O)c3ccccc3)nnc-2[nH]1,SRB,,"10 µM, NCI60 single-dose screen, prostate cancer",reference: untreated,cell growth,91.7%
O=c1ccn(Cc2cn(-c3c4ccccc4nc4ccccc34)nn2)c(=O)[nH]1,NCI60 single-dose screen,,10 µM,,growth percentage,97.5%
Cc1c(Cc2ccccc2)c(=O)oc2c(C)c(OCC(=O)NN=Cc3ccc([N+](=O)[O-])cc3)ccc12,"cytotoxicity, MTT",,,,IC50,11.2 µg/mL
CCCCN1CCN(c2ccc3nc(-c4ccc5nc(-c6cc(OC)ccc6OC)[nH]c5c4)[nH]c3c2)CC1,SRB,,"10 µM, 48 h",,growth percent,97.2%
CCCOc1nc(-c2cccc(O)c2)cc(-c2cc3cc(Cl)ccc3nc2N2CCOCC2)c1C#N,MTT,,,reference: WI-38 EC50 over PC-3 IC50,selectivity ratio,0.113
O=C1NC(c2ccccc2)(c2ccccc2)C(=O)N1Cc1cn(-c2cc3ccccc3oc2=O)nn1,NCI60 single-dose screen,,10 µM,,growth percentage,76.4%
Cc1cc(-c2ccccc2)n(-c2nc(-c3ccc(Cl)cc3)c3c(NC(=O)c4ccccc4)nnc-3[nH]2)n1,SRB,,"10 µM, NCI60 single-dose screen, prostate cancer",reference: untreated,cell growth,96.9%
C[C@H](Nc1ccc2c(c1)OCCn1cc(N3C(=O)OC[C@H]3C(F)F)nc1-2)C(N)=O,"western blot, measured: phospho-S6 Ser235/Ser236",,2 h,,IC50,1.92 µM
CCn1cc(-c2cc(Cn3ccoc3=N)cc3c2CCN([C@@H](C)c2cc(OC)ccn2)C3=O)c(C(F)(F)F)n1,"cell growth, inhibitor",,120 h,,EC50,> 30 µM
CCCCN1CCN(c2ccc3[nH]c(-c4ccc5[nH]c(-c6ccc(C(F)(F)F)cc6)nc5c4)nc3c2)CC1,SRB,,"10 µM, 48 h",,growth percent,-77%
CCC(=O)N1CCC(COCC(=O)N2CCN(c3nc(-c4cnc(N)nc4C(F)F)nc(N4CCOC[C@@H]4C)n3)CC2)CC1,resazurin growth rate inhibition,,72 h,,GR50,1580 nM
CC(=NNC(=O)COc1ccc2c(C)c(Cc3ccccc3)c(=O)oc2c1C)c1ccc(Br)cc1,"cell viability, MTT",,,,IC50,1.91 µg/mL
CCCN1CCN(c2ccc3[nH]c(-c4ccc5[nH]c(-c6cc(OC)c(OC)c(OC)c6)nc5c4)nc3c2)CC1,SRB,,"10 µM, 48 h",,growth percent,70.7%
O=P1(c2ccccc2)CCCCC1,MTT,,72 h,reference: IC50 HaCaT over IC50 PC-3,selectivity index,1
Nc1n[nH]c2nc(-c3cccc(O)c3)cc(-c3cc4cc(Cl)ccc4nc3N3CCOCC3)c12,MTT,,,reference: WI-38 EC50 over PC-3 IC50,selectivity ratio,0.801
Cc1cc(=O)[nH]n1-c1nc(-c2ccc(Cl)cc2)c2c(NC(=O)c3ccccc3)nnc-2[nH]1,SRB,,"10 µM, NCI60 single-dose screen, prostate cancer",reference: untreated,cell growth,104%
Cc1ncsc1-c1ccc(CNC(=O)[C@@H]2C[C@@H](O)CN2C(=O)[C@@H](NC(=O)CCCCCCCCCC(=O)N2CCN(CC[C@H](NC(=O)C3(N)CCN(c4ncnc5[nH]ccc45)CC3)c3ccc(Cl)cc3)CC2)C(C)(C)C)cc1,"immunoblot, measured: AURKB",,"1 µM, 24 h",,protein level,decreased
Cc1cc(=O)[nH]c(=O)n1Cc1cn(-c2cc3ccccc3oc2=O)nn1,NCI60 single-dose screen,,10 µM,,growth percentage,85.6%
C=CC(=O)N1CCC(COCC(=O)N2CCN(c3nc(-c4cnc(N)nc4C(F)F)nc(N4CCOC[C@@H]4C)n3)CC2)CC1,resazurin growth rate inhibition,,72 h,,GR50,774 nM
CCCCN1CCN(c2ccc3[nH]c(-c4ccc5[nH]c(-c6cc(OC)c(OC)c(OC)c6)nc5c4)nc3c2)CC1,SRB,,"10 µM, 48 h",,growth percent,57.4%
O=C1/C(=C/c2ccc3ccccc3c2O)NC(=S)N1c1ccccc1,MTT,,,reference: BJ1 over PC-3,selectivity index,1.8
Cc1nc(NC(=O)N2CCC[C@H]2C(N)=O)sc1-c1ccnc(C(C)(C)C(F)(F)F)c1,"western blot, measured: phospho-PKB/Akt Ser473",,2 h,,IC50,1.03 µM
NCc1cc2c(-c3ccccc3)n[nH]c2c(Nc2ccccc2)n1,flow cytometry,,"concentration not given, 72 h",,G2/M phase cells,24%
CCN(CC)c1ccc(C=NNC(=O)CSc2nc3ccccc3c(=O)n2Cc2ccc(S(N)(=O)=O)cc2)c(O)c1,NCI five-dose screen,,,,TGI,> 100 µM
CC(=O)O[C@H]1C(=O)[C@@]2(C)[C@H]([C@H](OC(=O)c3ccccc3)[C@]3(O)C[C@H](OC(=O)[C@H](O)[C@@H](NC(=O)c4ccccc4)c4ccccc4)C(C)=C1C3(C)C)[C@]1(OC(C)=O)CO[C@@H]1C[C@@H]2O,sulforhodamine B,prostate cancer,NCI60 screen,,TGI,0.63 µM
CCCCN1CCN(c2ccc3[nH]c(-c4ccc5[nH]c(-c6ccc(OCC)c(OCC)c6)nc5c4)nc3c2)CC1,SRB,,"10 µM, 48 h",,growth percent,-49.1%
Cc1nc(NC(=O)N2CCC[C@H]2C(N)=O)sc1-c1ccnc(C(C)(C)C(F)(F)F)c1,"immunoblot, measured: AURKB",,"1 µM, 24 h",,protein level,decreased
Nc1n[nH]c2nc(-c3cccc(O)c3)cc(-c3cc4ccccc4nc3N3CCOCC3)c12,MTT,,,reference: WI-38 EC50 over PC-3 IC50,selectivity ratio,5.21
NC1(C(=O)N[C@@H](CCO)c2ccc(Cl)cc2)CCN(c2ncnc3[nH]ccc23)CC1,"immunoblot, measured: AURKB",,"1 µM, 24 h",,protein level,decreased
CCOc1ccc2c(C)c(CC)c(=O)oc2c1C,"cell viability, MTT",,,,IC50,126 µg/mL
Cc1cc(=O)[nH]c(=O)n1Cc1cn(-c2c3ccccc3nc3ccccc23)nn1,NCI60 single-dose screen,,10 µM,,growth percentage,97.3%
CCc1c(C)c2ccc(OCC=Cc3ccccc3)c(C)c2oc1=O,"cell viability, MTT",,,,IC50,85.3 µg/mL
O=C(Nc1nnc2n3c(=S)[nH][nH]c3nc(-c3ccc(Cl)cc3)c1-2)c1ccccc1,SRB,,"10 µM, NCI60 single-dose screen, prostate cancer",reference: untreated,cell growth,94.2%
C#C[C@@]1(O)[C@@H](CO)O[C@@H](n2cc(Cl)c3c(N)ncnc32)[C@@H]1O,SRB,,NCI-60 screen,,TGI,4.54 µM and 3.52 µM
O=P1(C2CCCCC2)CCCCC1,ELISA,,"concentration not given, at IC50",reference: untreated,IL-6 reduction,60.5%
CCc1c(C)c2ccc(OCC(=O)NNC(=S)Nc3ccccc3)c(C)c2oc1=O,"cell viability, MTT",,,,IC50,29.8 µg/mL
CCCN1CCN(c2ccc3nc(-c4ccc5nc(-c6cc(OC)ccc6OC)[nH]c5c4)[nH]c3c2)CC1,SRB,,"10 µM, 48 h",,growth percent,103%
Cc1n[nH]c2nc(-c3ccc(Cl)cc3)c3c(NC(=O)c4ccccc4)nnc-3n12,SRB,,"10 µM, NCI60 single-dose screen, prostate cancer",reference: untreated,cell growth,101%

# A few entries again:
SMILES,test,test system,setting,how to read,endpoint,value
Cc1cc(-c2ccccc2)n(-c2nc(-c3ccc(Cl)cc3)c3c(NC(=O)c4ccccc4)nnc-3[nH]2)n1,SRB,,"10 µM, NCI60 single-dose screen, prostate cancer",reference: untreated,cell growth,96.9%
C[C@H](Nc1ccc2c(c1)OCCn1cc(N3C(=O)OC[C@H]3C(F)F)nc1-2)C(N)=O,"western blot, measured: phospho-S6 Ser235/Ser236",,2 h,,IC50,1.92 µM
CCn1cc(-c2cc(Cn3ccoc3=N)cc3c2CCN([C@@H](C)c2cc(OC)ccn2)C3=O)c(C(F)(F)F)n1,"cell growth, inhibitor",,120 h,,EC50,> 30 µM
